Measurements collected from several papers.
Protocols differ between the studies behind these lines.

NS(=O)(=O)c1ccc(NC(=O)[C@H](CC2CCCCC2)Nc2nn3c(=O)ccnc3s2)cc1  fraction unbound (rapid equilibrium dialysis; mouse plasma; 1 µM, 4 h): 0.022
CC1Cc2ccccc2N1C(=O)CN1CCN(Cc2ccccc2)CC1 (stereo not shown)  fraction unbound (equilibrium dialysis; mouse brain homogenate; 10 µg/g, 5 h, 37 °C): 0.184
O=C(Nc1ccc(C(F)F)cc1)[C@H](CC1CCCCC1)Nc1nn2c(=O)ccnc2s1  fraction unbound (rapid equilibrium dialysis; mouse plasma; 1 µM, 4 h): 0.0044
COC1C=COC2(C)Oc3c(C)c(O)c4c(c3C2=O)C2=NC3(CCN(CC(C)C)CC3)NC2=C(NC(=O)C(C)=CC=CC(C)C(O)C(C)C(O)C(C)C(OC(=O)c2cncnc2)C1C)C4=O (stereo not shown)  fraction unbound (rapid equilibrium dialysis; mouse plasma): 0.0466
Cc1nc2ccc(S(=O)(=O)n3nc(SCc4ccc(Cl)cc4)nc3N)cc2s1  fraction unbound (equilibrium dialysis; human plasma; 5 µM, 6 h): < 0.001
O=C(CNC(=O)c1cccc(NC2=NCCCO2)c1)NC[C@H](NC(=O)c1c(Cl)cc(-c2ccccc2)cc1Cl)C(=O)O  fraction unbound (equilibrium dialysis; mouse plasma): 0.041
COc1ccccc1NC(=O)OC1C(C)C(OC)C=COC2(C)Oc3c(C)c(O)c4c(c3C2=O)C2=NC3(CCN(CC(C)C)CC3)NC2=C(NC(=O)C(C)=CC=CC(C)C(O)C(C)C(O)C1C)C4=O (stereo not shown)  fraction unbound (human plasma): 0.00432
Nc1nc(SCc2ccc(Cl)cc2)nn1S(=O)(=O)c1ccc2c(c1)CCO2  fraction unbound (equilibrium dialysis; mouse plasma; 5 µM, 6 h): 0.002
O=C(Nc1nc(C(F)(F)F)co1)C1c2ccccc2Oc2ccccc21  fraction unbound (equilibrium dialysis; human plasma; 4 h, pH 7.4): 0.003
CN1CC[C@@H](COc2cnc(C#N)cc2-c2ccn3nc(NC(=O)C4CC4)cc3c2)C1  fraction unbound (rat plasma diluted 25%; 1 µM, 6 h, pH 7.4): 0.45
COC1C=COC2(C)Oc3c(C)c(O)c4c(c3C2=O)C2=NC3(CCN(CC(C)C)CC3)NC2=C(NC(=O)C(C)=CC=CC(C)C(O)C(C)C(O)C(C)C(OC(=O)c2cccnc2)C1C)C4=O (stereo not shown)  fraction unbound (human plasma): 0.0386
[11CH3]N(Cc1ccc(/C=C/C(=O)NO)cc1)CC12CC3CC(CC(C3)C1)C2  fraction unbound (baboon plasma; 10 min): 0.014
COC1C=COC2(C)Oc3c(C)c(O)c4c(c3C2=O)C2=NC3(CCN(CC(C)C)CC3)NC2=C(NC(=O)C(C)=CC=CC(C)C(O)C(C)C(O)C(C)C(OC(=O)Nc2cccnn2)C1C)C4=O (stereo not shown)  fraction unbound (human plasma): 0.103
CS(=O)(=O)c1ccc(-c2cc(Cl)c(C(=O)N[C@@H](CNC(=O)CNC(=O)c3cccc(NC(=N)N)c3)C(=O)O)c(Cl)c2)cc1  fraction unbound (equilibrium dialysis; mouse plasma): 0.046
OCC1OC(n2cnc3c(NCc4ccc(Br)s4)ncnc32)C(O)C1O (stereo not shown)  fraction unbound (equilibrium dialysis; rat plasma; 5 µg/mL, 4 h, pH 7.4): 0.05
COC1C=COC2(C)Oc3c(C)c(O)c4c(c3C2=O)C2=NC3(CCN(CC(C)C)CC3)NC2=C(NC(=O)C(C)=CC=CC(C)C(O)C(C)C(O)C(C)C(OC(=O)Nc2cnccn2)C1C)C4=O (stereo not shown)  fraction unbound (rapid equilibrium dialysis; mouse plasma): 0.0418

For quick reference, copied from above:
COC1C=COC2(C)Oc3c(C)c(O)c4c(c3C2=O)C2=NC3(CCN(CC(C)C)CC3)NC2=C(NC(=O)C(C)=CC=CC(C)C(O)C(C)C(O)C(C)C(OC(=O)c2cncnc2)C1C)C4=O (stereo not shown)  fraction unbound (rapid equilibrium dialysis; mouse plasma): 0.0466
